# Measured values gathered from unrelated publications.
# A part holds a random share of what one study measured.
# Sequence of UniProt Q8TF76 (whole entry, looked up): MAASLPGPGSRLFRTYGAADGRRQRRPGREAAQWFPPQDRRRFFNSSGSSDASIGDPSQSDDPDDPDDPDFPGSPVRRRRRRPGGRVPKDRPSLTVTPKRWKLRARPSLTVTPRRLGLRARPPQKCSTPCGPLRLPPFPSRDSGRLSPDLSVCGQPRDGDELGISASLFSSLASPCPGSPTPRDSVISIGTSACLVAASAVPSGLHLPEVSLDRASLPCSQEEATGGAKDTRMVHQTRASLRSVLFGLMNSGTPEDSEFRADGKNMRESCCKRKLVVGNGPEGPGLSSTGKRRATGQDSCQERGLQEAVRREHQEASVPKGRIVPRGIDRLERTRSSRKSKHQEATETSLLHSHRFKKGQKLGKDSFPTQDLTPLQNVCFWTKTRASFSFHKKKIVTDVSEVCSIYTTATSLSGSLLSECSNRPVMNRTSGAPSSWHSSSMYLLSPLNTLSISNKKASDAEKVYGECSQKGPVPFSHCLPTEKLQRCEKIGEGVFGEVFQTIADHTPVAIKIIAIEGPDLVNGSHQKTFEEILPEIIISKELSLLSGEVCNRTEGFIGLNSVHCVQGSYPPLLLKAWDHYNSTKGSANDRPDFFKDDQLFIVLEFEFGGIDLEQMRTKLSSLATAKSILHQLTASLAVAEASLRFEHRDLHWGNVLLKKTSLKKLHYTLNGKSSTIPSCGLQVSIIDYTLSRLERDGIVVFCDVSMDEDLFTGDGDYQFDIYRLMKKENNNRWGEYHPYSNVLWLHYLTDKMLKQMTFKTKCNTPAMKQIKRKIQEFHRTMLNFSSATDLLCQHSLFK
# Sequence of UniProt Q9P286 (whole entry, looked up): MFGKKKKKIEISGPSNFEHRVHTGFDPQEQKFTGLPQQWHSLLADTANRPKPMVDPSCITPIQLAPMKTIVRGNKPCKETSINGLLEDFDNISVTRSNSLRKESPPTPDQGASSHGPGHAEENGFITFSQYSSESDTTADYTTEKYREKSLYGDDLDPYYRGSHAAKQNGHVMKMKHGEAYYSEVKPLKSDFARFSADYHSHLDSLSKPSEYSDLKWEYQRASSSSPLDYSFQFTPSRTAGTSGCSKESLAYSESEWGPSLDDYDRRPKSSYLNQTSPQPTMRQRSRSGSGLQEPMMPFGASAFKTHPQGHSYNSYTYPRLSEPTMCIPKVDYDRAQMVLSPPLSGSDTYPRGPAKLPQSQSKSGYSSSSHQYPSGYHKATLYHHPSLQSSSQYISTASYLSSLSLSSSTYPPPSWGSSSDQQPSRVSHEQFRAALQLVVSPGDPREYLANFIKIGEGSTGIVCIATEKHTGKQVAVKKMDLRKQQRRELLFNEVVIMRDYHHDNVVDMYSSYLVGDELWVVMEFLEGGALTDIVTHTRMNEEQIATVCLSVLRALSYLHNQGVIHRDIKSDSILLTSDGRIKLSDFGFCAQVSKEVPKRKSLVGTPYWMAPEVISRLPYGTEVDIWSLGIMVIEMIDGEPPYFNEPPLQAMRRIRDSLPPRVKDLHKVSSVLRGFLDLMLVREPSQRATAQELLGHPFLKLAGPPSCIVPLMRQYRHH
# Sequence of UniProt P07948 (whole entry, looked up): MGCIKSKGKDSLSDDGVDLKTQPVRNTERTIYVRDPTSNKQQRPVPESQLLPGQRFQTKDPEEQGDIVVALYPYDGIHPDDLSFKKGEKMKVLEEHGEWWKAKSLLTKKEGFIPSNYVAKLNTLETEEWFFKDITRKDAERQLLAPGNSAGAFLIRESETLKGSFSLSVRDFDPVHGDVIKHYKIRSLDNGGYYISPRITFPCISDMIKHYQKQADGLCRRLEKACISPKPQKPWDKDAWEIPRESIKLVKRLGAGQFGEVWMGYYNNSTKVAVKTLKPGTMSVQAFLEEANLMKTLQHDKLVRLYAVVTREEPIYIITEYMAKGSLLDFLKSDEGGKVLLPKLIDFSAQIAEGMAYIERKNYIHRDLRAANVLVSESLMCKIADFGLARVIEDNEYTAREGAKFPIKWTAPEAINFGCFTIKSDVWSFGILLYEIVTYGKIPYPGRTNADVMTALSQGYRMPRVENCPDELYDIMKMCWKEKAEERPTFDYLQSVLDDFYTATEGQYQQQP
# Sequence of UniProt P51812 (whole entry, looked up): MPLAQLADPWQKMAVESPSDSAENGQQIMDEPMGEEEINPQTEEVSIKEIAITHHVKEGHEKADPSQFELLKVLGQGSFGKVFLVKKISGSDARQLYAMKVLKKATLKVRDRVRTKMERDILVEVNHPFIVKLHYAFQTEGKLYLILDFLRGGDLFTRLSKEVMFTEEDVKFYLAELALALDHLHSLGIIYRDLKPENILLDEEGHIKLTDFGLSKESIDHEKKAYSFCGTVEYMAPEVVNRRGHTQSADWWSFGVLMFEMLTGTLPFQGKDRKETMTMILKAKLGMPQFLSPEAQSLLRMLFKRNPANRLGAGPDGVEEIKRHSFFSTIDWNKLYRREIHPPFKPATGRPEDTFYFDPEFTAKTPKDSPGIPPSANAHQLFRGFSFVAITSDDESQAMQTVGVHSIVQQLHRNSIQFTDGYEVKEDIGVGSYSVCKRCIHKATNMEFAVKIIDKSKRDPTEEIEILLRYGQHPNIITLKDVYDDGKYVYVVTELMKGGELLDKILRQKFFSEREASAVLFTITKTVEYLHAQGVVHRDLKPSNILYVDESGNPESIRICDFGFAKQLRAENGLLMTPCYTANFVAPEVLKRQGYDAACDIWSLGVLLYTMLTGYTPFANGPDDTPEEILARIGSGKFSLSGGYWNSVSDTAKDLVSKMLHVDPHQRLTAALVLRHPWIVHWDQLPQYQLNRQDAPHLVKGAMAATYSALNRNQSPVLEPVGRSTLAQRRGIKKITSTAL
# Sequence of UniProt Q9NYY3 (whole entry, looked up): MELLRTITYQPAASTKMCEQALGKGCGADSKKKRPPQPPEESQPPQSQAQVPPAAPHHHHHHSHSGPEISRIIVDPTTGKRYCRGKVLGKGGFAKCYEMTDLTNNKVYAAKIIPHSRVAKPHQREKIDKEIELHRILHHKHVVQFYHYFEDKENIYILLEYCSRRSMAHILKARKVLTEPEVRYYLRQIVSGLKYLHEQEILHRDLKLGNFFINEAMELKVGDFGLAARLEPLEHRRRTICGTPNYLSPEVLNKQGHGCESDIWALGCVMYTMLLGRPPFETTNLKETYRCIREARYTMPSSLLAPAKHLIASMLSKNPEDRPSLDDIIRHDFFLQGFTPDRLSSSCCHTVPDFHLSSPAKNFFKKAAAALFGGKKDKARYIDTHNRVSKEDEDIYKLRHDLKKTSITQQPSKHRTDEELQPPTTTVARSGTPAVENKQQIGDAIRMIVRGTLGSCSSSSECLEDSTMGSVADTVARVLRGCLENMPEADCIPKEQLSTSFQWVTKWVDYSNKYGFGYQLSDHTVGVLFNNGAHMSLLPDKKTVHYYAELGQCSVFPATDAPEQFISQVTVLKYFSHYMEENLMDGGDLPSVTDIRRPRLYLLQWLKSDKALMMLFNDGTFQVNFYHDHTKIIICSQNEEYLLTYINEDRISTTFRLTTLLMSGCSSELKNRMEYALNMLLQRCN
# Sequence of UniProt Q9NWZ3 (whole entry, looked up): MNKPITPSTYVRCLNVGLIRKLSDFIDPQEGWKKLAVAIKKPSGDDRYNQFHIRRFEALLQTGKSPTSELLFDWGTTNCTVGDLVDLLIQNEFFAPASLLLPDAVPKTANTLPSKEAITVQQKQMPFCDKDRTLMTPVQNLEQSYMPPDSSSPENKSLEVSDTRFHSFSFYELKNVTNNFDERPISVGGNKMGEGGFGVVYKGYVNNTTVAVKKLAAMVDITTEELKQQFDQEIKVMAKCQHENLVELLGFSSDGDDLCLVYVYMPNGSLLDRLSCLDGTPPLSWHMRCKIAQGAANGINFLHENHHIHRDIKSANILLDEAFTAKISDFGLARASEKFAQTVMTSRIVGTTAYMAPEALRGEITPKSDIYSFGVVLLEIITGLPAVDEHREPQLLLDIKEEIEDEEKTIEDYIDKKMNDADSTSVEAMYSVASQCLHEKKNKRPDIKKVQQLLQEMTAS
# Sequence of UniProt Q12851 (whole entry, looked up): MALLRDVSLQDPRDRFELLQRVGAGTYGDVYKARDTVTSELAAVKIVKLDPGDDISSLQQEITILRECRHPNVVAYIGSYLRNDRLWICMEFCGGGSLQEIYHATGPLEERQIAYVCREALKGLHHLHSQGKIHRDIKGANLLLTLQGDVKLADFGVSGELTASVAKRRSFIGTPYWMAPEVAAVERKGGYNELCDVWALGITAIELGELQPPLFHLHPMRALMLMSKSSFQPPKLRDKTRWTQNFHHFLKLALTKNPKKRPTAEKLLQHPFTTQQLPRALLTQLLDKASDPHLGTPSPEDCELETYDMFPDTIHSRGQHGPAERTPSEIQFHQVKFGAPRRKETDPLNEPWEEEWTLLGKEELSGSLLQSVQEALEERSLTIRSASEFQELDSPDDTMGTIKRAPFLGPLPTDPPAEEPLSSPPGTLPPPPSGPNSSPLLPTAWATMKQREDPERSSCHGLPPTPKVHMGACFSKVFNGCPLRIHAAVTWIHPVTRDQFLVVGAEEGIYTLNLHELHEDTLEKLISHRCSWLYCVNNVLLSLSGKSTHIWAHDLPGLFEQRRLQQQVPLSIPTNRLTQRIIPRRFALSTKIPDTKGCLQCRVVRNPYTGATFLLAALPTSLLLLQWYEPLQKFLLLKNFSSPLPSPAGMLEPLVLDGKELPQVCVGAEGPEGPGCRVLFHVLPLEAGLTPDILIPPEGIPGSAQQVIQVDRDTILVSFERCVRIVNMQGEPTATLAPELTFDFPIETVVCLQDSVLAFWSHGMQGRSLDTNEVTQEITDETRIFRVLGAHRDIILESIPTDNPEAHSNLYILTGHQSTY

# Block 1
# SMILES: CC(C)n1cnc(-c2ccc(F)cc2)c1-c1ncc(C(=O)Nc2ccc(N3CCN(C)CC3)cc2)[nH]1
method,measured,host,route,dose,notes,patients with TEAE
phase 2a trial,,idiopathic pulmonary fibrosis patients,oral,dose not given,"GLDH increased, grade 4, all arms",0%
phase 2a trial,,patients with idiopathic pulmonary fibrosis,,dose not given,"endocrine disorders SOC, grade 2, all arms",0%
phase 2a trial,,idiopathic pulmonary fibrosis patients,oral,60 mg once daily,"GLDH increased, grade 2",0%
phase 2a trial,,idiopathic pulmonary fibrosis patients,oral,30 mg once daily,"blood/lymphatic disorders, grade 2",0%
,CA19-9 increased,idiopathic pulmonary fibrosis patients,,30 mg once daily,,0%
phase 2a trial,,idiopathic pulmonary fibrosis patients,oral,60 mg once daily,"urine red cells, grade 1",1%
,eye swelling,idiopathic pulmonary fibrosis patients,,60 mg once daily,,0%
phase 2a trial,,patients with idiopathic pulmonary fibrosis,,60 mg once daily,"free thyroxine decreased, grade 1",0%

# Block 2 — observed: enzyme activity; mode: inhibitor; concentration: 0.5 µM; reference: control
# SMILES: O=C1NC(=O)C(c2c[nH]c3ccccc23)=C1c1c[nH]c2ccccc12
target,remaining activity
"LYN (Homo sapiens, UniProt P07948)",104%
"NEK4 (Homo sapiens, UniProt P51957)",96.4%
"MAPK12 (Homo sapiens, UniProt P53778)",93%
"MKNK2 (Homo sapiens, UniProt Q9HBH9)",89.6%
"MAP3K10 (Homo sapiens, UniProt Q02779)",79%
"EPHA5 (Homo sapiens, UniProt P54756)",95.3%
"PRKCI (Homo sapiens, UniProt P41743)",96.9%
"MAPK13 (Homo sapiens, UniProt O15264)",104%
"Cyclin-dependent kinase 9, with cyclin T1 (CDK9, Homo sapiens, UniProt P50750)",89.9%
"CSNK1A1 (Homo sapiens, UniProt P48729)",98.4%
"MAP2K6 (Homo sapiens, UniProt P52564)",98%
"KIT (Homo sapiens, UniProt P10721)",68.5%
"BTK (Homo sapiens, UniProt Q06187)",98.2%
"AKT3 (Homo sapiens, UniProt Q9Y243)",90%
"PRKCD (Homo sapiens, UniProt Q05655)",55.5%
"CSNK2A1 (Homo sapiens, UniProt P68400)",106%
"MAP4K2 (Homo sapiens, UniProt Q12851)",84.9%
"LRRK2 (Homo sapiens, UniProt Q5S007)",77.5%
"PRKG1 (Homo sapiens, UniProt Q13976)",76.8%
"IRAK4 (Homo sapiens, UniProt Q9NWZ3)",92%
"CHEK1 (Homo sapiens, UniProt O14757)",93.1%
"PLK2 (Homo sapiens, UniProt Q9NYY3)",97.7%

# Block 3 — observed: cell-free assay; method: competition with immobilised ligand; concentration: 1 µM
# Compound: C[C@H](c1cccc(C#N)c1)n1cc(Cl)cc(C(N)=O)c1=N
target,remaining binding [%]
"PAK5 (Homo sapiens, UniProt Q9P286)",100
"ITK (Homo sapiens, UniProt Q08881)",90
"ACVR2B (Homo sapiens, UniProt Q13705)",100
"ALK (Homo sapiens, UniProt Q9UM73, L1196M)",76
"HASPIN (Homo sapiens, UniProt Q8TF76)",91
"Ribosomal protein S6 kinase alpha-3, C-terminal kinase domain (RPS6KA3, Homo sapiens, UniProt P51812)",80
"LATS2 (Homo sapiens, UniProt Q9NRM7)",84
"PIP4K2C (Homo sapiens, UniProt Q8TBX8)",100
"FLT3 (Homo sapiens, UniProt P36888, K663Q)",100
"STK10 (Homo sapiens, UniProt O94804)",100
"MAP4K1 (Homo sapiens, UniProt Q92918)",100
"GRK4 (Homo sapiens, UniProt P32298)",100
"MAP3K19 (Homo sapiens, UniProt Q56UN5)",76
"NEK10 (Homo sapiens, UniProt Q6ZWH5)",99
"HIPK4 (Homo sapiens, UniProt Q8NE63)",100
"BMP2K (Homo sapiens, UniProt Q9NSY1)",100
"Ribosomal protein S6 kinase alpha-6, C-terminal kinase domain (RPS6KA6, Homo sapiens, UniProt Q9UK32)",100

# Block 4
# SMILES: COc1cc(C(=O)N2CCC(N3CCN(C)CC3)CC2)ccc1Nc1ncc2c(n1)N(C)c1ccccc1C(=O)N2C
target or system,test,system,conditions,inhibition [%]
WNK1/WNK2/WNK4 (mouse),"probe labelling, inhibitor, KiNativ ActivX ATP probe",mouse brain lysate,"0.1 µM, activation loop peptide IGDLGLATLkR",-10.3
PKCe (mouse),"probe labelling, KiNativ, measured: LYS1 site peptide",brain tissue lysate (mouse),"1 µM, added: ADP acyl-phosphate probe",6.5
MAP3K5 and MAP3K6 mouse,KiNativ profiling,mouse brain lysate,"0.1 µM, LYS1 site, added: ADP acyl phosphate probe",10.4
human PBMC,"probe labeling, inhibitor, KiNativ profiling, measured: LTDFGLSkESIDHEKK",cell lysate,"concentration not given, domain 1, activation loop site, added: ADP acyl-phosphate probe 0.1 µM",0.6
mouse IKKε and TBK1,"probe labelling, KiNativ ATP probe",mouse brain lysate,"1 µM, LYS2 site DIkPGNIMR",-5.5
TRKB (mouse),"probe labelling, inhibitor, KiNativ ActivX ADP probe",mouse brain lysate,"1 µM, Lys1 site peptide",-9
mouse CaMK1α,"probe labelling, KiNativ ADP probe",mouse brain lysate,"0.1 µM, LYS1 site LVAIkCIAK",-1.8
IGF1R (mouse),"probe labelling, KiNativ ADP probe",mouse brain lysate,"0.1 µM, LYS1 labelled site",-2.7

# Some of these lines once more (block 2):
target,remaining activity
"MAP2K6 (Homo sapiens, UniProt P52564)",98%
"KIT (Homo sapiens, UniProt P10721)",68.5%
"BTK (Homo sapiens, UniProt Q06187)",98.2%
"AKT3 (Homo sapiens, UniProt Q9Y243)",90%
"PRKCD (Homo sapiens, UniProt Q05655)",55.5%
"CSNK2A1 (Homo sapiens, UniProt P68400)",106%
"MAP4K2 (Homo sapiens, UniProt Q12851)",84.9%
"LRRK2 (Homo sapiens, UniProt Q5S007)",77.5%
"PRKG1 (Homo sapiens, UniProt Q13976)",76.8%
